Measurements collected from several papers.
Each line is one published result; not all experiments were run side by side. ± gives the spread as reported.
UniProt P21729, sequence (whole entry, looked up): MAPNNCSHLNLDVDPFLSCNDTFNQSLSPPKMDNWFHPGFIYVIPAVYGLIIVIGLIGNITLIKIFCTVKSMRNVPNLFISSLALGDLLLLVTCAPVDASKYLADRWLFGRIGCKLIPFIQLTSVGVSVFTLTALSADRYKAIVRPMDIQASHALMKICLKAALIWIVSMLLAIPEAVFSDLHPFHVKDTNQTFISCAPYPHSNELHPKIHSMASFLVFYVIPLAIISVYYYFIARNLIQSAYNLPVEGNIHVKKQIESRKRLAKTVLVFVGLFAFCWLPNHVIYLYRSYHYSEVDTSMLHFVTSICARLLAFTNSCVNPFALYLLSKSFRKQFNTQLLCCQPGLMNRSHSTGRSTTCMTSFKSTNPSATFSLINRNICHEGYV

Compound | target or system | assay | system | setting | how to read | quantity | result
CCC(=O)N(C)c1ccc(Cl)c(Cl)c1 | Salmonella typhimurium | Ames test | TA1537 | 0.05 mg/plate, without S9 activation |  | revertants | 0 revertants/plate
CC[C@H](C)C(=O)N1CCC(NC(=O)Nc2ccc(OC(F)(F)F)c(F)c2)CC1 |  |  | human, plasma | oral, 8 mg, fed |  | AUC(0-inf) | 4330 ng·h/mL
CN(C)CC1CCCCC1(O)c1cccc(O)c1 (stereo not shown) | human P-glycoprotein |  | Caco-2 TC7 monolayer | 100 µM, 3 h, apical pH 6.8, basolateral pH 7.4, together with: cyclosporine A 10 µM |  | Papp A-to-B | 6.8 ± 0.7 ×10⁻⁶ cm/s
CCCNC(=O)[C@H](CC(C)C)NC(=O)[C@H](Cc1c[nH]cn1)NC(=O)CNC(=O)[C@@H](NC(=O)[C@H](C)NC(=O)[C@H](Cc1c[nH]c2ccccc12)NC(=O)[C@H](CCC(N)=O)NC(=O)[C@@H](Cc1ccccc1)NC(=O)CCCCCNC(=O)CN1CCN(CC(=O)O)CCN(CC(=O)O)CCN(CC(=O)O)CC1)C(C)C [indium-111 labelled] | Gastrin-releasing peptide receptor (Mus musculus, UniProt P21729) |  | CF-1 mice, large intestine | intravenous, dose not given, 1 h, together with: bombesin 100 µg (blocking) |  | tissue uptake | 0.13 ± 0.03 %ID/g
COc1cc(C(=O)NCCOCCOCCOCCNC(=O)c2ccc([18F])nc2)ccc1NC(=O)C1NC(CC(C)(C)C)C(C#N)(c2ccc(Cl)cc2F)C1c1cccc(Cl)c1F (stereo not shown) | HepG2 tumour model |  | host not given, lung | 4 h, tumour-bearing |  | tracer uptake | 0.38 %ID/g
COc1ccc(CNc2nc(N3CCC[C@H]3CO)ncc2C(=O)NNC(=O)c2cnc(N3CCC[C@H]3CO)nc2NCc2ccc(OC)c(Cl)c2)cc1Cl | Salmonella typhimurium |  | TA98 | 1000 µg/plate, 48 h |  | revertant count | 16 ± 3
N=C(N)NCCC[C@@H]1NC(=O)[C@H](CCCCNC(=O)CNC(=O)CNC(=O)CNC(=O)CC[C@H](NC(=O)CCOCCOCCOCCOCCNC(=O)CC[C@H](NC(=O)CN2CCN(CC(=O)O)CCN(CC(=O)O)CCN(CC(=O)O)CC2)C(=O)NCCOCCOCCOCCOCCC(=O)N[C@@H](CCC(=O)NCC(=O)NCC(=O)NCC(=O)NCCCC[C@@H]2NC(=O)[C@@H](Cc3ccccc3)NC(=O)[C@H](CC(=O)O)NC(=O)CNC(=O)[C@H](CCCNC(=N)N)NC2=O)C(=O)NCC(=O)NCC(=O)NCC(=O)NCCCC[C@@H]2NC(=O)[C@@H](Cc3ccccc3)NC(=O)[C@H](CC(=O)O)NC(=O)CNC(=O)[C@H](CCCNC(=N)N)NC2=O)C(=O)NCC(=O)NCC(=O)NCC(=O)NCCCC[C@@H]2NC(=O)[C@@H](Cc3ccccc3)NC(=O)[C@H](CC(=O)O)NC(=O)CNC(=O)[C@H](CCCNC(=N)N)NC2=O)NC(=O)[C@@H](Cc2ccccc2)NC(=O)[C@H](CC(=O)O)NC(=O)CNC1=O [indium-111 labelled] |  |  | female athymic nude mice, liver | intravenous, 3 µCi, 4 h, U-87 MG glioma xenograft |  | tissue uptake | 1.98 ± 0.39 %ID/g
CSCC[C@@H]1NC(=O)[C@@H]2CSSC[C@H](NC(=O)[C@H](CO)NC(=O)[C@H](C)N)C(=O)N[C@@H](CCCNC(=N)N)C(=O)N[C@@H]([C@@H](C)O)C(=O)N3CCC[C@H]3C(=O)N[C@@H](CCCCN)C(=O)N[C@@H](CC(=O)O)C(=O)N[C@H]3CSSC[C@H](NC(=O)[C@H](CCCCN)NC(=O)[C@H](CCCNC(=N)N)NC(=O)[C@H](CC(N)=O)NC1=O)C(=O)N[C@@H](CCCCN)C(=O)N[C@H]1CSSC[C@H](NC(=O)[C@@H]4CCCN4C(=O)[C@H](CC(=O)O)NC(=O)[C@H](C)NC3=O)C(=O)N[C@@H](C)C(=O)N[C@@H](CCCCN)C(=O)N[C@@H](CCC(=O)O)C(=O)N[C@@H]([C@@H](C)O)C(=O)NCC(=O)N[C@@H](CSSC[C@@H](C(N)=O)NC(=O)[C@H](CCCNC(=N)N)NC(=O)[C@H](CC(N)=O)NC1=O)C(=O)N1CCC[C@H]1C(=O)N[C@@H](Cc1ccc(O)cc1)C(=O)NCC(=O)N[C@@H](CCCCN)C(=O)N2 |  |  | DA rat, pristane-induced arthritis, serum | subcutaneous, 0.1 mg/kg once weekly, end of 21-day trial |  | osmolality | 288 mOsm/kg
CN[C@](C)(C[18F])C(=O)O | DU-145 tumour model |  | host not given, muscle | 15 min, tumour-bearing |  | tracer uptake | 1.6 %ID/g
Cc1ccc(/C=C/C(=O)O)cc1-c1cc2c(cc1C)C(C)(C)CCC2(C)C |  | RNA sequencing, refers to: Arl11 mRNA | rat, brain | dose not given, 24 h, single dose | relative to: vehicle | log2 fold change | -0.017
COc1ccc(CNc2nc(N3CCC[C@H]3CO)ncc2C(=O)NN)cc1Cl | Salmonella typhimurium |  | TA97a | 62.5 µg/plate, 48 h |  | revertant count | 153 ± 19
C[C@@](O)(C(F)F)[C@H](NC(=O)c1ccc(C#CC#CC2CC2)cc1)C(=O)NO |  |  | CD-1 mouse | oral, 40 mg/kg, not fasted |  | terminal half-life | 3 ± 0.3 h
CC(C)[C@]12O[C@H]1[C@@H]1O[C@]13[C@]1(O[C@H]1C[C@H]1c4c(C(=O)c5ccccc5)oc(OC(=O)c5ccccc5)c4CC[C@@]13C)[C@@H]2O | MV4-11 | cell viability, Alamar Blue |  | 24 h |  | IC50 | 74 nM
